Measurements pooled from the literature.
Numbered parts are unrelated; each lists some results of a single study.

Block 1 — technique: protein binding microarray; molecule type: double-stranded DNA, one strand shown; medium: in vitro; concentration: not given; reference: not given; direction: higher = stronger binding
Target: Histone acetyltransferase KAT6A, winged helix 2, GST fusion (KAT6A, Homo sapiens, UniProt Q92794, residues 85-181)
Notes: 8-mer, flanks averaged, mean of 2 arrays, mostly near background
Construct (chain): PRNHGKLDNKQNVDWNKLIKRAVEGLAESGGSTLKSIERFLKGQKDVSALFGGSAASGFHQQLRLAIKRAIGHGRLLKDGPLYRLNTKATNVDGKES
With `GACTTGTA` the E-score was -0.182.
`CACTAAGA` gave an E-score of 0.0273.
`TACCGGCA` gave an E-score of -0.111.
For `ACAGCCTA`, the E-score was 0.0481.
`GTCCCGAA` gave an E-score of -0.147.
`AGCTTACA` has an E-score of 0.0728.
With `AAGTATGG` the E-score was -0.0221.
`AACCACTA` has an E-score of -0.13.
With `CTGTTCGA` the E-score was 0.0556.
The E-score of `GCCGGTAA` is reported as 0.0548.
The E-score of `ATACAGCA` is reported as 0.137.

Block 2 — technique: aptamer microarray, sandwich; molecule type: DNA with 2'F-ANA; medium: in vitro; concentration: 200 nM; with: Cy3 exosite-II aptamer, 400 nM; direction: higher = stronger binding; strand: GGTTGGTGTGGTTGG
Target: Prothrombin, mature alpha-thrombin (F2, Homo sapiens, UniProt P00734)
Notes: whole 15-mer aptamer, many near background
`2'F-ANA at 1 4 6 9 10 11 12`: “mean fluorescence intensity” 60.1 a.u.
Under “mean fluorescence intensity”, `2'F-ANA at 3 6 8 9 11 13 14` is recorded as 465 a.u.
For `2'F-ANA at 2 3 7 8 9 10 11 12 14`, “mean fluorescence intensity” read 271 a.u.
For `2'F-ANA at 3 4 6 7 9 11 12`, “mean fluorescence intensity” read 619 a.u.
Under “mean fluorescence intensity”, `2'F-ANA at 3 4 7 8 9 10 11` is recorded as 306 a.u.
Under “mean fluorescence intensity”, `2'F-ANA at 2 3 4 6 7 8 14` is recorded as 287 a.u.
Under “mean fluorescence intensity”, `2'F-ANA at 3 4 6 12 13 14` is recorded as 382 a.u.
For `2'F-ANA at 1 4 6 7 8 9 12 14`, “mean fluorescence intensity” read 55 a.u.
`2'F-ANA at 1 2 5 7 10 11 12 13 15` — result for “mean fluorescence intensity”: 58 a.u.

Block 3 — technique: RNA Bind-n-Seq; molecule type: RNA; medium: in vitro; concentration: not given; reference: input RNA pool; direction: higher = stronger binding
Target: RING finger protein unkempt homolog, zinc fingers 1-6, GST-SBP tag (UNK, Homo sapiens, UniProt Q9C0B0, residues 30-357)
Notes: RNA with constant flanks, human and mouse sites, ends assumed
Residues (chain): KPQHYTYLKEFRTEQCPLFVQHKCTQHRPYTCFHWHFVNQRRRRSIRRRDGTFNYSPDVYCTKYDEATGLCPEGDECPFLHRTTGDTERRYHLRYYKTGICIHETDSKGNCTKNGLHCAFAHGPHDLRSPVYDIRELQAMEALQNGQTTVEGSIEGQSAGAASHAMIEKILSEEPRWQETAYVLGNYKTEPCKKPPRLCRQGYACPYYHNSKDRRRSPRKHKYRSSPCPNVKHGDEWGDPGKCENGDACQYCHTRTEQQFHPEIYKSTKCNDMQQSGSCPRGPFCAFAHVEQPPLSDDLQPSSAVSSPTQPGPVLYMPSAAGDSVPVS
`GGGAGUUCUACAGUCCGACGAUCGAUGCUGGGCAGUUUUAUGCAAAAUAUAAGGAGACAAAAUUGAAGGAAAAAGAAGACGCACUGGCUAGAAUUGAAAUUGAAACCCUUCAAAAACAGAAGAAAGUUAAAGUUAAAAAACCACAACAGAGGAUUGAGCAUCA` gave a bound/input enrichment of 0.912 ratio.
The bound/input enrichment of `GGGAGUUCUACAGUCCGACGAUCCUCAGAGAUGUGGCAUAUCAGUAUGUGAAAAAGGGGGCUCGUAUAUUUGUGGAAGGGAAAGUGGACUAUGGCGAGUACAUGGAUAAAAACAAUGUGAGGCGGCAAGCAACAACAAUCAUACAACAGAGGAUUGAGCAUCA` is reported as 0.31 ratio.
`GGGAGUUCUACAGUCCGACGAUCUUCUUCAAACCUGGUAGUCAGUUUUUGUAUUCAACUUUUGGCUAUACCCUACUGGCAGCCAUAGUAGAGAGAGCUUCAGGAUGUAAAUAUUUGGACUAUAUGCAGAAAAUAUUCCAUGACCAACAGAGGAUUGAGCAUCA` gave a bound/input enrichment of 0.122 ratio.
With `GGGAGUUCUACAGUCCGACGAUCGUUCUGUGUAACUUCAAUGCUUUGUGCUAAGUCAAGAGGAACAAAUAUGUUGCUAUUCUGGUUAAUUUAUCCUAAAAACUGUUAAGUCACCAACACAGAAAUACUGAAUAUAACCAAAGCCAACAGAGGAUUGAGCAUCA` the bound/input enrichment was 0.0735 ratio.
For `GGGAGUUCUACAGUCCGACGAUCCCCCGGGCUGUUUCACAAGCAAGUGGUUUUCAUUAACUCACAAAGCCUUUUUGGACAUUAAUAUUUAUUUAUUUUUGUUUUUGUAUACACAUUACCCAGCAUCUCUUUUGUAUAAGAGACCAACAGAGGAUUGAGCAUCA`, the bound/input enrichment was 0.315 ratio.
With `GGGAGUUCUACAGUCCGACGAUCAUGUAUUCAAUAGAUCUCUACAACUAUGCCCCUUCUAGCAGGGAUACCUAUAACUUUGUGUUAGCACCAUGGAGAAUACAAUGUUUUUGCAACAUAUGAGAGAAGAUAGUUCUAGCCAUGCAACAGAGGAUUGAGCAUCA` the bound/input enrichment was 0.377 ratio.
`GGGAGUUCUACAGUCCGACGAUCCGCUUUACAAGUGCUGGACAAGCAUCUAAGAAUAUAAUCCAGCCACCGUCAUGUGUGCUGCAUUAUUACAAUGUUCCGCUGUGUGUCACAGAAGAGACCUUCACAAAGUUGUGUAACGACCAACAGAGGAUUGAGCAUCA` gave a bound/input enrichment of 0.173 ratio.
`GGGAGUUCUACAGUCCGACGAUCAAAAAAAAAAGGAUUUGAAACCAUAAAGUGUUCUGAAGAAAUUAAGUCUAUAAAAAGCAUACUUUCUUUUUUCUUUUCCUUUUUUCCCUCCACAGACAAUGUCCUCUGUUCAAUUCCUAACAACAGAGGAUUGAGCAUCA` gave a bound/input enrichment of 0.17 ratio.

Further values, each from its own experiment
With `PhoQ, residues 284 288 289 292 302 303 SSCLAV` the fold induction was 14.9 (PhoP, residues 12 14 15 18 19 SMASL (Escherichia coli, UniProt P23836); Sort-seq, refers to: YFP reporter; E. coli; PhoQ-PhoP variant library, with: 10 µM Mg2+; reference: high Mg2+ state, higher = stronger signaling).

Excerpt of the above (block 1):
With `GACTTGTA` the E-score was -0.182.
`CACTAAGA` gave an E-score of 0.0273.
`TACCGGCA` gave an E-score of -0.111.
For `ACAGCCTA`, the E-score was 0.0481.
